Experimental data from different studies.
Every numbered part comes from another study and shows a few of its results, in no order.
Sequence of UniProt P15735 (whole entry, looked up): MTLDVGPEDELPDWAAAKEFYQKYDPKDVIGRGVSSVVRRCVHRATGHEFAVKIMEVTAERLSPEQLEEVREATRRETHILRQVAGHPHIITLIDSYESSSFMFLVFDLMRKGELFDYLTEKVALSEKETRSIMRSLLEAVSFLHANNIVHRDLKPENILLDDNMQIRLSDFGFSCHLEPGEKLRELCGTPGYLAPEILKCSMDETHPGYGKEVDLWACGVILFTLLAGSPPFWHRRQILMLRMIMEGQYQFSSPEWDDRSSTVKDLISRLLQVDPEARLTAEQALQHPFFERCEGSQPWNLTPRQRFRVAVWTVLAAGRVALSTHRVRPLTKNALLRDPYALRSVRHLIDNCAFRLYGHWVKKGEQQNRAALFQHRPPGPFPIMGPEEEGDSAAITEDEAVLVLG
Sequence of UniProt P31751 (whole entry, looked up): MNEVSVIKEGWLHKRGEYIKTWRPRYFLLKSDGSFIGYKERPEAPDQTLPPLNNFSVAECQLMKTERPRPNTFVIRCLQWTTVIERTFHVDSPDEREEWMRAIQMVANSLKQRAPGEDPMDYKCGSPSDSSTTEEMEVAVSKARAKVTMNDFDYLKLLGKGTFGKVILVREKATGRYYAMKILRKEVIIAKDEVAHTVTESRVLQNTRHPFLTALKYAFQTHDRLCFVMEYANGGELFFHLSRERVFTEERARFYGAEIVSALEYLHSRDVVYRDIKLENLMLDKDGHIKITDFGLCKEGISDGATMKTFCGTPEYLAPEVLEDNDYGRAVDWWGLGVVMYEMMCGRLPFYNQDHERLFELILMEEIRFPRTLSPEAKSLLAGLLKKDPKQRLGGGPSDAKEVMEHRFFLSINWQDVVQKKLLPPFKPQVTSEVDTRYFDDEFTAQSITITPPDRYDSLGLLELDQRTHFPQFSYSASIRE
Sequence of UniProt Q8IVH8 (whole entry, looked up): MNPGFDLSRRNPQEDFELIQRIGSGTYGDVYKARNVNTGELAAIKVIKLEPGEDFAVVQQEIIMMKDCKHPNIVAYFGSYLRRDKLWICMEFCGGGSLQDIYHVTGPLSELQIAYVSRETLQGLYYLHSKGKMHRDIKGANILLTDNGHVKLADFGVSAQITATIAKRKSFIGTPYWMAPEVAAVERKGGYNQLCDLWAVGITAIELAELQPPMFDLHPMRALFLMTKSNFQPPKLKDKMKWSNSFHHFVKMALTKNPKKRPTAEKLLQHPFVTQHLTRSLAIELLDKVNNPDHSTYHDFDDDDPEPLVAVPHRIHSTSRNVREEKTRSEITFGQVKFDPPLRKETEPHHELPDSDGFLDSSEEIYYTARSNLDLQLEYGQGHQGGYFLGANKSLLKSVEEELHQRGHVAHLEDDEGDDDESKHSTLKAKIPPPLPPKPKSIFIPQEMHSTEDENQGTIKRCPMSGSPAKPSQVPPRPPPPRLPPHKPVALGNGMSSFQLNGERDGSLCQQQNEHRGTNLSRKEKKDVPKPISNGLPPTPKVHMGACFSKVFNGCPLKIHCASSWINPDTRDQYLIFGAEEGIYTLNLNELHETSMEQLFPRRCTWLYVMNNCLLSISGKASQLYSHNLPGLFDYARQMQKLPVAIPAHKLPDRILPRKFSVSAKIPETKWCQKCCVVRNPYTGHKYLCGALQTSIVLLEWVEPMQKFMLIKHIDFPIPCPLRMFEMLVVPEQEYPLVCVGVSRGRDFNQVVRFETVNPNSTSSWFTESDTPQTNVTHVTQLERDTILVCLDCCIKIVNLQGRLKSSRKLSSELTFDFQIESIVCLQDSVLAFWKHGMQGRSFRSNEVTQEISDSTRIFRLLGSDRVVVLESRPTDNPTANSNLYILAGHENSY
Sequence of UniProt Q9BXA7 (whole entry, looked up): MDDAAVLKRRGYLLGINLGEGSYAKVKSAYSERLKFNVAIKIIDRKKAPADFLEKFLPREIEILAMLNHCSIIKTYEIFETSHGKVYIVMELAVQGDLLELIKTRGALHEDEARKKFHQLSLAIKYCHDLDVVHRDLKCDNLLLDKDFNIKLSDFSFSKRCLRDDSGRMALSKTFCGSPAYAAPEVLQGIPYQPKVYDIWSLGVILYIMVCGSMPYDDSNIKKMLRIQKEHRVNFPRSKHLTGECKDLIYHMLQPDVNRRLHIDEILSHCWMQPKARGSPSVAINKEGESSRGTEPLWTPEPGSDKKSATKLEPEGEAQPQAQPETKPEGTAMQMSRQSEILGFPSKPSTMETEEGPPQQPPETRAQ
Sequence of UniProt Q9H4A3 (whole entry, looked up): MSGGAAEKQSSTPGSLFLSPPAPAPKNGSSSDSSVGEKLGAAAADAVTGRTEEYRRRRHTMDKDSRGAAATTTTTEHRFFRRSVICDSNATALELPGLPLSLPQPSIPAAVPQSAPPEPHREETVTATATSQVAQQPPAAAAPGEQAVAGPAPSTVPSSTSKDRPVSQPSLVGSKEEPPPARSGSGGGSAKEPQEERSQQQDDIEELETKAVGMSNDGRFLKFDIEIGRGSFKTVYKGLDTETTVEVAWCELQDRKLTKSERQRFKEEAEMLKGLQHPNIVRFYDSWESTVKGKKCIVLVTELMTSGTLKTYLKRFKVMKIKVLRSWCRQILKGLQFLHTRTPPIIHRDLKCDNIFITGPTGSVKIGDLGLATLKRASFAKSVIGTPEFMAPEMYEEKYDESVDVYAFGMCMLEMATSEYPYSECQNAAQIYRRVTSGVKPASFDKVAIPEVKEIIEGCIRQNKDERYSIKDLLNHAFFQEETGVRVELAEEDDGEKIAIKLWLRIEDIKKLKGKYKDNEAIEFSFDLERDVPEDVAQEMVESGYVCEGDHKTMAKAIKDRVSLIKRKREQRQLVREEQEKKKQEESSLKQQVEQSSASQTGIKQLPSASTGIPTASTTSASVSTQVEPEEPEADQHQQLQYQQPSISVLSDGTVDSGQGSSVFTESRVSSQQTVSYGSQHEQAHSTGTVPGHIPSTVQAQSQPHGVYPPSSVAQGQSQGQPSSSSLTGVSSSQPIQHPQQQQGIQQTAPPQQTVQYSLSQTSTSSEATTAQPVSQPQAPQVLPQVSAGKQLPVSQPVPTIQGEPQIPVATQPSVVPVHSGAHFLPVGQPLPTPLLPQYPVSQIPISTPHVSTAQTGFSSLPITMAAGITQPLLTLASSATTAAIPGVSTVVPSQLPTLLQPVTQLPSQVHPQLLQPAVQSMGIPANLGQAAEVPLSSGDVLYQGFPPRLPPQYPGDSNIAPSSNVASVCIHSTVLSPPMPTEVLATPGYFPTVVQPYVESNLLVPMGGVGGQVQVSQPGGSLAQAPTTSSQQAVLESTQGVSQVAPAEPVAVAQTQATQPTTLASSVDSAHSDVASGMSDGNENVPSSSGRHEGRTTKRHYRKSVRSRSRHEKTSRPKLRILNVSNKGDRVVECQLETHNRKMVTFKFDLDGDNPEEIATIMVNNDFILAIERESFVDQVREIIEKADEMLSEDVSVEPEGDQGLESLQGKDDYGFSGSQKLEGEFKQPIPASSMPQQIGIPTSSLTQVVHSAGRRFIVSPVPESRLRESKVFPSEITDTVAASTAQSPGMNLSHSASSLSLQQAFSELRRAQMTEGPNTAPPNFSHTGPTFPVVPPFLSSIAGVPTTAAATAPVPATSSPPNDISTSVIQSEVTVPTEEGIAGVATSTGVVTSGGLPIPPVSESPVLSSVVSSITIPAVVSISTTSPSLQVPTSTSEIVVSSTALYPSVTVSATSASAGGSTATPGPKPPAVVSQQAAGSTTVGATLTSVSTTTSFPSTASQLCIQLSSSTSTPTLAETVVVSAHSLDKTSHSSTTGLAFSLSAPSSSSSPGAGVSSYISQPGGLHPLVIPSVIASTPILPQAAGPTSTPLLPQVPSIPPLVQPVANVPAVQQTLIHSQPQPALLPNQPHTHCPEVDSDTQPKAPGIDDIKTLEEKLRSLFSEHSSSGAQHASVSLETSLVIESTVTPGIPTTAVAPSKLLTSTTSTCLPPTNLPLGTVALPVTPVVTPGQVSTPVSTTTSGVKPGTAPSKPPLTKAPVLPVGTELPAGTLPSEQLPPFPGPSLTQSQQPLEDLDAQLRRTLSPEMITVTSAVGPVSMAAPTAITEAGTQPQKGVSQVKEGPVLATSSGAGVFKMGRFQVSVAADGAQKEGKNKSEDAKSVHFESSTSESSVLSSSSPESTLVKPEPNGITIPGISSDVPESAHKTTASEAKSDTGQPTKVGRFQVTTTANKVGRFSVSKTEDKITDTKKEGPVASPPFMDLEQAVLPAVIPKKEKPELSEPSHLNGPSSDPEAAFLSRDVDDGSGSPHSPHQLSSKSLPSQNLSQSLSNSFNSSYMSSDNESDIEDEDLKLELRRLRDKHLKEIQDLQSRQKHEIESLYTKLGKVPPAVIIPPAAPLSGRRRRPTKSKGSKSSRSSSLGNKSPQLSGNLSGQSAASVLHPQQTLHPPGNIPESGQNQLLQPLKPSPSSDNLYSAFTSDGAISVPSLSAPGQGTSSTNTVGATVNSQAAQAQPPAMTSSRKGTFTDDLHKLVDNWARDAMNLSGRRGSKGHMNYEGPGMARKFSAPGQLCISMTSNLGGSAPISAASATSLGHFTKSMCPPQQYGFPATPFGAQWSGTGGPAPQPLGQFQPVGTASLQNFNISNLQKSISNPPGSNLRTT

Study 1
Host: mouse
Matrix: microsomes or S9
Concentration: 2 µM
Time: 0.5 h
The remaining compound of `CCCN(CCC)CC(c1ccc(-c2cccnc2)cc1)N(C)C(=O)CN1C(=O)COc2cc(Cl)c(Cl)cc21` (stereo not shown) is reported as 10%.
`CCOc1ccc(S(=O)(=O)N2CCN(C)CC2)cc1-c1nc(O)c2c(n1)c(C(C)(C)C)nn2C` has a remaining compound of 2.29%.
With `COC(=O)[C@@H](OC(C)(C)C)c1c(C)nc2c(c(C)c(C)n2CC2CCO2)c1-c1ccc2c(c1)CCCO2` (stereo partly shown) the remaining compound was 0.27%.
The remaining compound of `Cc1ccc(-n2nc(C)c(NCc3cnn(C)c3)c2C)cc1` is reported as 31.6%.
`COc1ccc(Cl)cc1-c1ccc2c(c1)c(C#N)cn2-c1ccc(F)cc1` gave a remaining compound of 77%.
`CN1CCN(C(=O)N2CCCN(C(=O)C[C@@H](Cc3cc(F)c(F)cc3F)NC(=O)OC(C)(C)C)CC2)CC1` gave a remaining compound of 16.2%.
The remaining compound of `O=C(NC1CCN(Cc2ccc(OC3CCNCC3)c(Br)c2)CC1)c1cc2cc(F)ccc2n1S(=O)(=O)c1ccccc1` is reported as 71.1%.
For `COc1ccc(CN2CCC3(CCNCC3)C2)cc1Cn1cncn1`, the remaining compound was 34.9%.

Study 2
Target: Calcium/calmodulin-dependent protein kinase type II subunit alpha (CAMK2A, Homo sapiens, UniProt Q9UQM7)
Sequence of UniProt Q9UQM7 (whole entry, looked up): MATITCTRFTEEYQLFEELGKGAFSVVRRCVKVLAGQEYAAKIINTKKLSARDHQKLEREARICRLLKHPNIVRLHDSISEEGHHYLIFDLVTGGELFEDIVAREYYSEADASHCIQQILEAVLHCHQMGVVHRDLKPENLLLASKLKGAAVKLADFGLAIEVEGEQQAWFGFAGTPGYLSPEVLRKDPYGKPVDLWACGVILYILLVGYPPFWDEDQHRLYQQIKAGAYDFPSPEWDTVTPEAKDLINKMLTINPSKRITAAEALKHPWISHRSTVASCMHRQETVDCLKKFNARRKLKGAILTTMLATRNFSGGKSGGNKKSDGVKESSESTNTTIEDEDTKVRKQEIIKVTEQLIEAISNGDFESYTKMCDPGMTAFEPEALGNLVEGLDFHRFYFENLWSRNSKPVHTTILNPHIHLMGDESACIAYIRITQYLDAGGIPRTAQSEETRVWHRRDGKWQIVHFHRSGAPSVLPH
Effect on: enzyme activity
Action: inhibitor
Concentration: 10 µM
`CC1CC(OC(=O)c2ccccc2O)CC(C)(C)C1` (stereo not shown) has an inhibition of -5%.
With `O=C1c2ccc(O)cc2OCC1c1ccc(O)cc1` (stereo not shown) the inhibition was 9%.
For `CC1(C)O[C@H]2CC(=O)OC[C@]23[C@H]2CC[C@@]4(C)[C@H](c5ccoc5)OC(=O)[C@H]5O[C@]54[C@]2(C)C(=O)C[C@@H]13`, the inhibition was -67%.
With `COc1ccc2c(OC)c3ccoc3nc2c1OC` the inhibition was -15%.
For `CO[C@H]1/C=C/O[C@@]2(C)Oc3c(C)c(O)c4c(O)c(c5c(nc6cc(C)ccn65)c4c3C2=O)NC(=O)/C(C)=C\C=C\[C@H](C)[C@H](O)[C@@H](C)[C@@H](O)[C@@H](C)[C@H](OC(C)=O)[C@@H]1C`, the inhibition was -2%.
With `COc1ccc([C@@H]2CC(=O)c3c(O)cc(O[C@@H]4O[C@H](CO)[C@@H](O)[C@H](O)[C@H]4O)cc3O2)cc1` the inhibition was -17%.
`COc1ccc([C@@H]2Sc3ccccc3N(CCN(C)C)C(=O)[C@@H]2OC(C)=O)cc1` has an inhibition of -13%.
`C=CCc1ccc(O)c(-c2ccc(O)c(CC=C)c2)c1` gave an inhibition of 8%.

Study 3
Compound: O=C(Nc1cnn(-c2csc(C(=O)NC3COC3)c2)c1)Nc1c(F)cccc1Cl
Effect on: enzyme activity
Concentration: 5 µM
Reference: untreated control
AKT2 (Homo sapiens, UniProt P31751) — remaining activity: 104%.
WNK1 (Homo sapiens, UniProt Q9H4A3) — remaining activity: 92.9%.
It gave 104% for remaining activity (MAST3 (Homo sapiens, UniProt O60307)).
The remaining activity was 99.1% (DYRK3 (Homo sapiens, UniProt O43781)).

Study 4
Organism: Sarcocystis neurona
Effect on: parasite growth
Concentration: concentration not given
Setting: second screen
Reference: untreated
`C[N+]1(C)CCCC(OC(=O)C(O)(c2ccccc2)c2ccccc2)C1.[Br-]` (stereo not shown) — result for “log2 fold change”: 0.2.
For `Cl.NC(N)=NC(=O)c1nc(Cl)c(N)nc1N.O`, “log2 fold change” read 0.25.
`Cl.O=C(O)/C=C/c1ccc(Cn2ccnc2)cc1`: “log2 fold change” 0.3.
`CC(CN1c2ccccc2Sc2ccccc21)N(C)C.Cl` (stereo not shown): “log2 fold change” 0.51.
Under “log2 fold change”, `CN(C)CCC=C1c2ccccc2CCc2ccccc21.Cl` is recorded as 0.18.

Study 5
SMILES: C[C@@H](c1cccc(C#N)c1)n1cc(Cl)cc(C(N)=O)c1=N
Effect on: cell-free assay
Method: competition with immobilised ligand
Concentration: 1 µM
The remaining binding was 98% (CAMK1D (Homo sapiens, UniProt Q8IU85)).
The remaining binding was 100% (CAMK2A (Homo sapiens, UniProt Q9UQM7)).
It gave 99% for remaining binding (CDK4 (Homo sapiens, UniProt P11802)).
Tyrosine-protein kinase ABL1, phosphorylated (ABL1, Homo sapiens, UniProt P00519, M351T) — remaining binding: 0%.
The remaining binding was 95% (ANKK1 (Homo sapiens, UniProt Q8NFD2)).
It gave 86% for remaining binding (FLT3 (Homo sapiens, UniProt P36888, N841I)).
It gave 79% for remaining binding (MAP3K6 (Homo sapiens, UniProt O95382)).
RET (Homo sapiens, UniProt P07949) — remaining binding: 100%.
Tyrosine-protein kinase ABL1, phosphorylated (ABL1, Homo sapiens, UniProt P00519, Q252H) — remaining binding: 78%.
For MAP4K3 (Homo sapiens, UniProt Q8IVH8): remaining binding read 100%.
PHKG2 (Homo sapiens, UniProt P15735) — remaining binding: 100%.
FLT3 (Homo sapiens, UniProt P36888, D835H) — remaining binding: 81%.
It gave 100% for remaining binding (TSSK1B (Homo sapiens, UniProt Q9BXA7)).
For BUB1 (Homo sapiens, UniProt O43683): remaining binding read 93%.
It gave 81% for remaining binding (CSNK1A1 (Homo sapiens, UniProt P48729)).
NEK4 (Homo sapiens, UniProt P51957) — remaining binding: 96%.
The remaining binding was 100% (ACVR2A (Homo sapiens, UniProt P27037)).
For FLT3 (Homo sapiens, UniProt P36888, R834Q): remaining binding read 100%.

A few entries again (study 5):
The remaining binding was 95% (ANKK1 (Homo sapiens, UniProt Q8NFD2)).
It gave 86% for remaining binding (FLT3 (Homo sapiens, UniProt P36888, N841I)).
It gave 79% for remaining binding (MAP3K6 (Homo sapiens, UniProt O95382)).
RET (Homo sapiens, UniProt P07949) — remaining binding: 100%.
Tyrosine-protein kinase ABL1, phosphorylated (ABL1, Homo sapiens, UniProt P00519, Q252H) — remaining binding: 78%.
For MAP4K3 (Homo sapiens, UniProt Q8IVH8): remaining binding read 100%.
